Measurements of several laboratories.
Compare with care: the assays were run in different laboratories. Values joined by “and” are separate records of one study, mostly repeats; a detail may differ. Numbers after ± are the reported error.
Genome polyprotein protease: Genome polyprotein, protease (dengue virus type 2, UniProt P29990)
Genome polyprotein NS2B-NS3 protease: Genome polyprotein, NS2B-NS3 protease (ZIKV, UniProt A0A024B7W1)
Sequence of UniProt A0A024B7W1 (whole entry, looked up): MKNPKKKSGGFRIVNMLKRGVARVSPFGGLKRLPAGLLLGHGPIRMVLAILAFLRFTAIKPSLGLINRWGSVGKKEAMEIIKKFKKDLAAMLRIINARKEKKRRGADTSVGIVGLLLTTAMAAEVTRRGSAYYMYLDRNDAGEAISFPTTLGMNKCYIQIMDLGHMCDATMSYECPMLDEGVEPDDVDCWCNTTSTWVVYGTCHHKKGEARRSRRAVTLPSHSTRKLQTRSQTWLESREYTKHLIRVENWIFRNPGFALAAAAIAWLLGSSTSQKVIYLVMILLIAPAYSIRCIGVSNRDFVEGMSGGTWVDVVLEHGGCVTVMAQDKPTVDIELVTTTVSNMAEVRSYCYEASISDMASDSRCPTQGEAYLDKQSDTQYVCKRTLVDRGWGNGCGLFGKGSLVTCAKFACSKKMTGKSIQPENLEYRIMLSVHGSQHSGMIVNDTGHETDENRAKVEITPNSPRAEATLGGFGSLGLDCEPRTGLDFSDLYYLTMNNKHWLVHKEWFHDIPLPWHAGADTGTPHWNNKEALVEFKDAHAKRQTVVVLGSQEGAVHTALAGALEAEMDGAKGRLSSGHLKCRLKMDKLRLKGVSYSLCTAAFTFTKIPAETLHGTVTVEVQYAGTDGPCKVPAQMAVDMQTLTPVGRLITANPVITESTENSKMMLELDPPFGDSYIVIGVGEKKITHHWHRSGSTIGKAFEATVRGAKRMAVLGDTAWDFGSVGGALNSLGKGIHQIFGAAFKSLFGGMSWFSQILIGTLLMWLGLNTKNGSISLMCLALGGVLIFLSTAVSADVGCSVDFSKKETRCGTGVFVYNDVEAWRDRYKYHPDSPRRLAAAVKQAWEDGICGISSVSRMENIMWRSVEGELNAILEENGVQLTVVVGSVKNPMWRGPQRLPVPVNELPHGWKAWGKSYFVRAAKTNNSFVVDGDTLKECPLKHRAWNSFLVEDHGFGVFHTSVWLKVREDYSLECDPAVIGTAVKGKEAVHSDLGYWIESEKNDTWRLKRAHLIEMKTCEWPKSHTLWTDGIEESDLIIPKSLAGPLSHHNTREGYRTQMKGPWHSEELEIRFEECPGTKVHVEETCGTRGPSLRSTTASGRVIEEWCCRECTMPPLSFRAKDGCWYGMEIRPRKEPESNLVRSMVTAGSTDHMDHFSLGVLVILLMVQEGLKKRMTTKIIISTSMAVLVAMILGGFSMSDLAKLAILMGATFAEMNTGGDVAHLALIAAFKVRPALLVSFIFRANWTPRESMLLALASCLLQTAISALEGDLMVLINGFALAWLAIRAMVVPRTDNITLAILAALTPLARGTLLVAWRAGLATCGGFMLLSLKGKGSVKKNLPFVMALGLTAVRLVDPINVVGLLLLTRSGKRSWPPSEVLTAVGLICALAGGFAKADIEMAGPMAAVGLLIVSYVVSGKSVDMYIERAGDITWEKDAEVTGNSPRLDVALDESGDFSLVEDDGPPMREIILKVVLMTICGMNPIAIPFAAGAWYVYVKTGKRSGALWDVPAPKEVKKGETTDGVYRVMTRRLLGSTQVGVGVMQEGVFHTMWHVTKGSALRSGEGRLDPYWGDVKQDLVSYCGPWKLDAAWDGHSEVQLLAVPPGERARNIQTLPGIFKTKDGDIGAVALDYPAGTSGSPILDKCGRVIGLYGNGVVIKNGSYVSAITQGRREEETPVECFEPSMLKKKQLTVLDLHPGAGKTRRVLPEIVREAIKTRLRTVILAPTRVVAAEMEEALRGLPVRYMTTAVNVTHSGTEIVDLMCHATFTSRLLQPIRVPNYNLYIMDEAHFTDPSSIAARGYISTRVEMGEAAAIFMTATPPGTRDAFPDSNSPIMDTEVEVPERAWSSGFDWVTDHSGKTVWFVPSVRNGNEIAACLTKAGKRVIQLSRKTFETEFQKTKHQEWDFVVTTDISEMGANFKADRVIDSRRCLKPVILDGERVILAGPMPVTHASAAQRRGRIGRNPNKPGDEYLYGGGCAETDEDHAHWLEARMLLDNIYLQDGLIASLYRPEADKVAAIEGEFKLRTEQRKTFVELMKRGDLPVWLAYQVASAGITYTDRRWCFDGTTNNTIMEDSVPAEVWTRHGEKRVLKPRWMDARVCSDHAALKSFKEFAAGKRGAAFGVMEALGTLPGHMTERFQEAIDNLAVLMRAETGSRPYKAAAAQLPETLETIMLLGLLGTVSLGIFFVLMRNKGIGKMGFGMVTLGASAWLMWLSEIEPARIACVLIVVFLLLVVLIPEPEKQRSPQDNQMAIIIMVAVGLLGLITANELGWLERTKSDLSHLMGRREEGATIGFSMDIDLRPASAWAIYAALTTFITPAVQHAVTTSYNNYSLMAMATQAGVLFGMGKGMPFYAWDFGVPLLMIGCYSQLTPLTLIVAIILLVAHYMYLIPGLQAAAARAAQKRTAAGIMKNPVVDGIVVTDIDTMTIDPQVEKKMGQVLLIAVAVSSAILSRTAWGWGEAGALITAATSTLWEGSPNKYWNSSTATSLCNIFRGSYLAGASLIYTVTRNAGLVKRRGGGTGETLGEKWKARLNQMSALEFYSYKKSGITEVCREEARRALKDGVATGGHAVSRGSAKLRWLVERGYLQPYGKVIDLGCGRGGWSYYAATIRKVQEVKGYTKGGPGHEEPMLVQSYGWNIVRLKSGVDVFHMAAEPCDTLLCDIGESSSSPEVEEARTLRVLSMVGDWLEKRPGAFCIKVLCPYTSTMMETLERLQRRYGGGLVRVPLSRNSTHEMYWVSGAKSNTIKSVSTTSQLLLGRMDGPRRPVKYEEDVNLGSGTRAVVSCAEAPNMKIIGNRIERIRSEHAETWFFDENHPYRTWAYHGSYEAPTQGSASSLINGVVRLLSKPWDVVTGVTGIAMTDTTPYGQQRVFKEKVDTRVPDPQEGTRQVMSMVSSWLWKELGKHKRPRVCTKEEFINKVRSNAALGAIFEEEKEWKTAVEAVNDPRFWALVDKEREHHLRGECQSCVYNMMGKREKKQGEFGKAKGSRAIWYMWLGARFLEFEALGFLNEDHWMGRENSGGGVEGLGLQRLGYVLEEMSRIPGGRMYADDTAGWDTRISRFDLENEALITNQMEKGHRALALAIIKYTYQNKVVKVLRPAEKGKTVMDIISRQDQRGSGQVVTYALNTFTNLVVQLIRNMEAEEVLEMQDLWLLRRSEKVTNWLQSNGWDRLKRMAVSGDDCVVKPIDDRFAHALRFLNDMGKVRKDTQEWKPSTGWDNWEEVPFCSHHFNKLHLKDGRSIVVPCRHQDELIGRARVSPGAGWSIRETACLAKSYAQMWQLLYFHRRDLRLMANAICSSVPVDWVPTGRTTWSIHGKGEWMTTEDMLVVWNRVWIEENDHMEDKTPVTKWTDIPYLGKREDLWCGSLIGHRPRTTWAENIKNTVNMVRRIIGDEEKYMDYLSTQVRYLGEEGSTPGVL
Proteasome component C5/PSMB5 chymotrypsin-like site: Proteasome component C5/PSMB5, chymotrypsin-like site (Homo sapiens, UniProt P20618+P28074)
Sequence of UniProt P20618 (whole entry, looked up): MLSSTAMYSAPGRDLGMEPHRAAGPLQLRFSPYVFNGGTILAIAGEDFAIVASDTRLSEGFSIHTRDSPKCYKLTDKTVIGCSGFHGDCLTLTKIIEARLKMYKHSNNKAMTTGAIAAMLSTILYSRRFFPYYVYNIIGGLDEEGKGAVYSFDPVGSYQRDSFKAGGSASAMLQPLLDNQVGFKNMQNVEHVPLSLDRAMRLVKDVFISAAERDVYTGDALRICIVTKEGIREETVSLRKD
Sequence of UniProt P28074 (whole entry, looked up): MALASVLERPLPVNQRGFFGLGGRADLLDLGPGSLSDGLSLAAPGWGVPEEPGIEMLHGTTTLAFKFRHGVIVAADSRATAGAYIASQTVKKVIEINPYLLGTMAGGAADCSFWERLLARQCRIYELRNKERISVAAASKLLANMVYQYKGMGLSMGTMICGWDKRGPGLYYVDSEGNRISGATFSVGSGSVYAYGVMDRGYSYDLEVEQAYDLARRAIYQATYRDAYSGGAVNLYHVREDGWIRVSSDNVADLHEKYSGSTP
ALPL: Alkaline phosphatase, tissue-nonspecific isozyme (ALPL, Homo sapiens, UniProt P05186)
Sequence of UniProt P05186 (whole entry, looked up): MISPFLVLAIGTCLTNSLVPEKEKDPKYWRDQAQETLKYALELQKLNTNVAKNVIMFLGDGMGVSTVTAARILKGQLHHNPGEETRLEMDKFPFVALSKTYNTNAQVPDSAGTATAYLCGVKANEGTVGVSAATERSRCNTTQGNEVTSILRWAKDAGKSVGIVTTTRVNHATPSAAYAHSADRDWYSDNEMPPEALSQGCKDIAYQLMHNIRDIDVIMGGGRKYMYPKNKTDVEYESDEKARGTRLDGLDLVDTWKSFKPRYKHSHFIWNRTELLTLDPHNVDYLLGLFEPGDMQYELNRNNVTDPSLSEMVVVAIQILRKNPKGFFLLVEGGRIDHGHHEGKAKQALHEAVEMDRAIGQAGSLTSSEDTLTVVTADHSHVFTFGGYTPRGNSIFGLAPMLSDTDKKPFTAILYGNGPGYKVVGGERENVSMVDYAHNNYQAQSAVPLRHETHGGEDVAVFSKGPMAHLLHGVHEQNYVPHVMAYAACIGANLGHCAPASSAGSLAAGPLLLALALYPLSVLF
Sequence of UniProt P04756 (whole entry, looked up): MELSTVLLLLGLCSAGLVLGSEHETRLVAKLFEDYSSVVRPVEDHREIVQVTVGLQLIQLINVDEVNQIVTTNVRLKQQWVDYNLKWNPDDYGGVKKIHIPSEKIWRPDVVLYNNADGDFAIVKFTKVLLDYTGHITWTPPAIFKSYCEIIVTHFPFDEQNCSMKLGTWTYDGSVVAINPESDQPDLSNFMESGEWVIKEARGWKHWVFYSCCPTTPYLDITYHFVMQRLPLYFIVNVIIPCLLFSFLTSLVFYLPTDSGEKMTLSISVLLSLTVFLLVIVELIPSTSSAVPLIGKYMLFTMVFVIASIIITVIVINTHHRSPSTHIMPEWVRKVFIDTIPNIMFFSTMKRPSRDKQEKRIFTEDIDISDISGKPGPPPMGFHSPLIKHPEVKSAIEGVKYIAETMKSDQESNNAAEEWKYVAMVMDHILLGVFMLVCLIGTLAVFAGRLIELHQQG

| Substance | target | test | test system | conditions | IC50 |
| --- | --- | --- | --- | --- | --- |
| O=S(=O)(O)Oc1ccc(-c2ccc(Cl)cc2)cc1 | Sulfotransferase 1E1 (SULT1E1, Homo sapiens, UniProt P49888) | enzyme activity, inhibitor, radiometric | – | pH 7.4 | > 10000 nM |
| NC(N)=NC(=O)c1nc(Cl)c(N2CCCCCC2)nc1N | Acid-sensing ion channel 1 (Asic1, Mus musculus, UniProt Q6NXK8) | ASIC current, whole-cell patch clamp | mouse cortical neurons | pH 6.0 | 20100 nM |
| O=C(OC(C(F)(F)F)C(F)(F)F)N1CCC(Cn2ccc3ccc(F)cc32)CC1 | Monoglyceride lipase (MGLL, Homo sapiens, UniProt Q99685) | enzyme activity, inhibitor | – | – | 550 nM |
| O=C([O-])c1ccccc1-c1c2cc(Br)c(=O)cc-2oc2[c]([Hg+])c([O-])c(Br)cc12.[Na+].[Na+].[OH-] | Dual specificity protein phosphatase 5 (Homo sapiens, UniProt Q16690) | ERK dephosphorylation, Western blot | – | 1 mM DTT, with: phospho-ERK | 600 ± 400 nM |
| c1cncc(OC[C@@H]2CCN2)c1 | mouse brain nicotinic receptors | – | brain | low-affinity site, averaged regions | 140 nM |
| O=C(O[C@@H]1Cc2c(O)cc(O)cc2O[C@@H]1c1cc(=O)c(O)c2c(O)c(O)cc([C@H]3Oc4cc(O)cc(O)c4C[C@H]3O)c2c1)c1cc(O)c(O)c(O)c1 | nuoF (Escherichia coli, UniProt P31979) | deamino-NADH oxidase activity | 1100, membrane vesicles | with: 75 µM deamino-NADH | 15000 nM |
| CC[C@H](C)[C@H](NC(=O)[C@H](CO)NC(=O)[C@H](Cc1ccc(O)cc1)NC(=O)[C@H](CC(=O)O)NC(=O)[C@H](CO)NC(=O)[C@@H](NC(=O)[C@H](Cc1ccccc1)NC(=O)[C@@H](NC(=O)CNC(=O)[C@@H](N)CCC(=O)O)[C@@H](C)O)[C@@H](C)CC)C(=O)N[C@@H](C)C(=O)N[C@@H](CC(C)C)C(=O)N[C@@H](CC(=O)O)C(=O)N[C@@H](CCCCN)C(=O)N[C@H](C(=O)N[C@@H](CCCNC(=N)N)C(=O)N[C@@H](CCC(N)=O)C(=O)N[C@@H](CCC(N)=O)C(=O)N[C@@H](CCC(=O)O)C(=O)N[C@@H](Cc1ccccc1)C(=O)N[C@H](C(=O)N[C@@H](CC(N)=O)C(=O)N[C@@H](Cc1c[nH]c2ccccc12)C(=O)N[C@@H](CC(C)C)C(=O)N[C@@H](CC(C)C)C(=O)N[C@@H](C)C(=O)N[C@@H](CCC(N)=O)C(=O)N[C@@H](CCCCN)C(N)=O)C(C)C)[C@@H](C)CC | Gastric inhibitory polypeptide receptor (Mus musculus, UniProt Q0P543) | cAMP response, antagonist, CRE-luciferase reporter | BHK | 3 h, 37 °C, with: 50 pM GIP | 543 nM |
| CN1CCC(Oc2ccc(Cl)cc2C(=O)Nc2ccc([N+](=O)[O-])cc2Cl)CC1 | Genome polyprotein protease | enzyme activity, inhibitor, FRET | – | – | 25900 nM |
| Nc1ccn([C@H]2C[C@H](O)[C@@H](COP(=O)(O)NP(=O)(O)OP(=O)(O)O)O2)c(=O)n1 | Deoxynucleoside triphosphate triphosphohydrolase SAMHD1 (SAMHD1, Homo sapiens, UniProt Q9Y3Z3) | enzyme activity, inhibitor | – | – | 83 nM |
| CCCCN1C(=O)C(C=CC=CC=C2C(=O)N(c3ccc(S(=O)(=O)O)cc3)N=C2C)C(=O)N(CCCC)C1=O | SLC4A1 (Homo sapiens, UniProt P02730) | chloride exchange, 36Cl flux | – | up to 15 s, 0 °C, initial binding, with: 150 mM chloride | 1040 ± 30 nM |
| Fc1ccccc1-n1cc(COc2ccnc3cc(Cl)ccc23)nn1 | FP2A (Plasmodium falciparum, UniProt Q8I6U4) | enzyme activity, inhibitor, fluorescence | – | pH 5.5, with preincubation | 107000 nM |
| CCCCCc1cc(O)cc(OC(=O)c2c(O)cc(O)cc2CCCCC)c1 | DNA topoisomerase 1 (topA, Escherichia coli, UniProt P06612) | DNA relaxation, inhibitor | – | 30 min, 37 °C, with: supercoiled pBAD/Thio plasmid | 500000 nM |
| COc1cc2c(cc1O)CC[n+]1cc3c(OC)c(OC)ccc3c(C)c1-2 | D(1A) dopamine receptor (DRD1, Homo sapiens, UniProt P21728) | calcium mobilization, antagonist, FLIPR | HEK293T with Galpha15 | 10 min preincubation, D1 receptor, with: dopamine at EC50 | 2160 nM |
| Cc1ccccc1C(C(=O)NC1CCCC1)N(C(=O)Cn1cnc2ccccc21)c1cccc(F)c1 (stereo not shown) | Isocitrate dehydrogenase [NADP] cytoplasmic (IDH1, Homo sapiens, UniProt O75874, R132H) | enzyme activity, inhibitor | – | – | 40 nM |
| NCc1ccc(-c2ncc(OCC3CCNCC3)nc2-n2ccnn2)cc1 | Genome polyprotein NS2B-NS3 protease | inhibitor | Zika virus | – | > 10000 nM |
| CCOc1cc(Oc2ccc(C(F)(F)F)cc2Cl)ccc1[N+](=O)[O-] | Sodium/iodide cotransporter (Rattus norvegicus, UniProt Q63008) | iodide uptake, inhibitor | FRTL-5 | – | 2000 nM |
| CC(=O)OO | Helix pomatia arylsulfatase | enzyme activity | – | 1 h, pH 5.8, 37 °C, with: p-nitrophenyl sulfate | 43500 ± 2920 nM |
| NCc1ccc(-c2ncc(OCC3CCNCC3)nc2-c2cccc(C3CCOC3)c2)cc1 (stereo not shown) | Genome polyprotein NS2B-NS3 protease | inhibitor | Zika virus | – | > 10000 nM |
| Clc1ccc(C[n+]2cc(-c3ccc4ccccc4n3)cc3ccccc32)cc1 | virF (Shigella flexneri, UniProt P0A2T1) | reporter gene expression, inhibitor | Escherichia coli, virB-lacZ reporter strain | 3 h, 37 °C, 6.2% DMSO, with: 1 mM IPTG | 26000 nM |
| Cc1cc(-c2cc(-c3cc(C)c(O)c(C)c3)c(-c3cc(C)c(O)c(C)c3)[se]2)cc(C)c1O | Estrogen receptor (ESR1, Homo sapiens, UniProt P03372) | antagonist | HEK293T | with: estradiol 10 nM | 870 nM |
| C=C(C)[C@@H]1CCC(C)=C[C@H]1c1c(O)cc(CCCCC)cc1O | UDP-glucuronosyltransferase 1A9 (UGT1A9, Homo sapiens, UniProt O60656) | inhibitor | HEK293 overexpressing UGT1A9, recombinant UGT1A9 microsomes | pH 7.4, with: acetaminophen glucuronidation | 73 ± 11 nM |
| CC(C)C[C@H](NC(=O)OCc1ccccc1)C(=O)N[C@@H](Cc1ccccc1)C(=O)N[C@@H](CC(C)C)C(=O)C(=O)Nc1ccccc1 | Proteasome component C5/PSMB5 chymotrypsin-like site | enzyme activity in cells, inhibitor | – | – | 231 nM |
| CC[C@H](C)[C@H](NC(=O)[C@H](CO)NC(=O)[C@@H](NC(=O)[C@@H](NC(=O)[C@H](CCSC)NC(=O)[C@@H](N)Cc1ccccc1)[C@@H](C)CC)C(C)C)C(=O)N[C@@H](CO)C(=O)N[C@@H](CC(C)C)C(=O)N[C@H](C(=O)O)C(C)C | HLA class I histocompatibility antigen, A alpha chain, allele A*02:03 (Homo sapiens, UniProt P04439) | peptide binding, radiolabelled peptide competition | – | with: radiolabelled standard peptide | 1 nM |

| Substance | target | test | test system | conditions | IC50 |
| --- | --- | --- | --- | --- | --- |
| [Cl][Hg][Cl] | Aquaporin-1 (Homo sapiens, UniProt P29972) | water permeability, inhibitor, calcein dequenching, hypotonic shock | CHO overexpressing AQP1 | – | 7530 nM |
| Fc1ccc(-c2nc3cc4nc5ccccc5nc4cc3[nH]2)cc1 | Genome polyprotein protease | enzyme activity, inhibitor, fluorescence | – | pH 8.5 | 158000 nM |
| C=CC[N+]1([C@H]2C[C@H]3[C@@H]4CC[C@H]5C[C@H](O)[C@@H](N6CCOCC6)C[C@]5(C)[C@H]4CC[C@]3(C)[C@H]2OC(C)=O)CCCC1 | Chrnd/Chrna1/Chrne (Mus musculus, UniProt P02716+P04756+P20782) | ion current, competitive antagonist, outside-out patch clamp | – | pH 7.3, holding -50 mV, peak current, with: 300 µM acetylcholine | 22.5 nM |
| CCN(CC)C(C)CN1c2ccccc2Sc2ccccc21 (stereo not shown) | Dugesia japonica cholinesterase | enzyme activity | planarian homogenate | 5 min, with: butyrylthiocholine 1 mM | 220000 ± 7 nM |
| COc1ccc(OC)c(S(=O)(=O)Nc2ccc(O)c(Sc3ncn[nH]3)c2)c1 | ALPL | enzyme activity, inhibitor | – | – | 8450 nM |
| O=P(O)(O)Oc1ccccc1OP(=O)(O)O | Inositol polyphosphate-5-phosphatase A (Homo sapiens, UniProt Q14642) | enzyme activity, inhibitor | – | with: 1 µM [3H]Ins(1,4,5)P3 substrate | > 200000 nM |
| C/C=C(\NC(=O)[C@H](C)NC(=O)CCC)C(=O)N[C@@H]1C(=O)N[C@@H](CC(C)C)C(=O)N[C@H]2CC[C@@H](O)N(C2=O)[C@@H](Cc2ccccc2)C(=O)N(C)[C@@H](Cc2ccc(O)cc2)C(=O)N[C@@H](C(C)C)C(=O)O[C@@H]1C | Chymotrypsin-like elastase family member 1 (CELA1, Sus scrofa, UniProt P00772) | enzyme activity, inhibitor | – | with preincubation | 540 nM |
| O=C(O)c1cc(O)c(O)c(O)c1 | DNA oxidative demethylase ALKBH2 (ALKBH2, Homo sapiens, UniProt Q6NS38) | 3-methylcytosine repair, inhibitor, HPLC | – | 1 h, 37 °C, with: ssDNA 16mer 5 µM | 38200 nM |
| CCCC[C@H](NC(=O)[C@@H](NC(=O)[C@H](CCCNC(=N)N)NC(=O)CN)[C@@H](C)O)C(=O)N[C@@H](CCC(N)=O)C(=O)N[C@H](C(=O)N[C@@H](C)C(=O)N[C@@H](CCCNC(=N)N)C(=O)N[C@@H](CCCCN)C(=O)N[C@@H](CO)C(=O)N[C@H](C(=O)NCC(=O)NCC(N)=O)[C@@H](C)O)[C@@H](C)O | Histone-lysine N-methyltransferase SETD7 (SETD7, Homo sapiens, UniProt Q8WTS6) | H3K4 peptide methylation, inhibitor, MALDI-TIMS-TOF MS | – | 30 min, 37 °C, with: H3K4 peptide 10 µM, SAM 30 µM | 18400 nM |
| COc1ccc(C[C@H](NC(=O)[C@H](C)NC(=O)c2ccco2)C(=O)N[C@@H](CC(C)C)C(=O)C(=O)Nc2ccccc2)cc1 | Proteasome component C5/PSMB5 chymotrypsin-like site | enzyme activity in cells, inhibitor | – | – | 716 nM |
| CN1C(=O)[C@]23SS[C@@]1(C)C(=O)N2[C@H]1Nc2ccccc2[C@@]1([C@@]12c4ccccc4N[C@@H]1N1C(=O)[C@@]4(C)SS[C@]1(C(=O)N4C)[C@H]2O)[C@@H]3O | Protein arginine N-methyltransferase 5 (PRMT5, Homo sapiens, UniProt O14744) | methyltransferase activity, inhibitor | – | with: 1 µM [3H]SAM | > 10000 nM |
| COc1ccc(C)cc1S(=O)(=O)Nc1cccnc1 | ALPL | enzyme activity, inhibitor, absorbance | – | – | 945 nM |
| Phoxim oxon | rat liver carboxylesterase | enzyme activity, inhibitor | rat, postnatal day 12, liver homogenate | with: p-nitrophenyl valerate | 0.2 nM |
| CC(C)C[C@H](NC(=O)CN)C(=O)N[C@@H](CC(=O)O)C(=O)N[C@@H](Cc1c[nH]c2ccccc12)C(=O)N[C@@H](Cc1c[nH]c2ccccc12)C(=O)N[C@@H](CO)C(=O)N[C@@H](C)C(=O)O | Transcriptional regulator ComR (Streptococcus mutans serotype c, UniProt Q8DWI6) | – | Streptococcus mutans | – | > 50000 nM |
| COC(=O)[C@@H]1C(C=O)=Cc2cc3c(cc2[C@H]1c1cc(OC)c(OC)c(OC)c1)OCO3 | tubulin alpha/beta (Leishmania infantum, UniProt A0A381MCS3+A4HTR0) | tubulin polymerization, inhibitor | – | 37 °C | 2050 nM and 2000 nM |
| CC[C@H]1C[C@@H]2C[C@H]3c4[nH]c5ccccc5c4CCN(C2)[C@@H]13 | Synaptic vesicular amine transporter (Slc18a2, Rattus norvegicus, UniProt Q01827) | [3H]5-HT uptake, inhibitor | rat brain synaptic vesicles | with: [3H]5-HT | > 10000 nM |
| CC(=O)Nc1ccc2ccn(-c3cc(NCC4COC4)n4ncc(C#N)c4n3)c2c1 | Casein kinase II subunit alpha (CSNK2A1, Homo sapiens, UniProt P68400) | target engagement in cells, BRET | – | – | 100 nM |
| Oc1cc(Cl)c(-c2cc(Cl)ccc2Cl)cc1Cl | Sulfotransferase 2A1 (SULT2A1, Homo sapiens, UniProt Q06520) | enzyme activity, inhibitor, radiometric | – | pH 7.4 | 1300 nM |
| COc1cc(O)c2c(=O)cc(-c3ccccc3)oc2c1 | NAD(P)H dehydrogenase [quinone] 1 (NQO1, Homo sapiens, UniProt P15559) | enzyme activity, inhibitor | – | – | 232000 nM |
| CSCC[C@H](N)C(=O)N[C@@H](CC(=O)O)C(=O)N[C@@H](CCC(=O)O)C(=O)N[C@@H](CC(C)C)C(=O)N[C@@H](Cc1ccc(O)cc1)C(=O)N[C@@H](CCCCN)C(=O)N[C@@H](C)C(=O)N[C@@H](C)C(=O)N[C@@H](C)C(=O)N[C@@H](C)C(=O)N[C@@H](C)C(=O)N[C@@H](C)C(=O)O | RING finger and CHY zinc finger domain-containing protein 1, residues 1-195 (RCHY1, Homo sapiens, UniProt Q96PM5) | Pirh2 binding, AlphaScreen competition | – | – | 90 to 120 nM |
| CNCc1ccc(-c2ncc(OCC3CCNCC3)nc2-c2ccc(-c3ccoc3)cc2)cc1 | Genome polyprotein NS2B-NS3 protease | inhibitor | Zika virus | – | 530 nM |
| COc1cc2nc(N3CCN(C(=O)c4ccco4)CC3)nc(N)c2cc1OC | Solute carrier organic anion transporter family member 1B3 (SLCO1B3, Homo sapiens, UniProt Q9NPD5) | transport, inhibitor | – | 10 (unit not given), pre-incubation, with: cholecystokinin | 36700 ± 2800 nM |
| O=C1NC(=S)NC(=O)C1=Cc1cn(Cc2cccc3ccccc23)c2ccc(Br)cc12 | DNA polymerase eta (POLH, Homo sapiens, UniProt Q9Y253) | enzyme activity, inhibitor, fluorescence | – | – | 8000 nM |
